# Experimental data from different studies.
# Compare with care: the assays were run in different laboratories. Values joined by “and” are separate records of one study, mostly repeats; a detail may differ. ± gives the spread as reported.
# UniProt P48067, sequence (whole entry, looked up): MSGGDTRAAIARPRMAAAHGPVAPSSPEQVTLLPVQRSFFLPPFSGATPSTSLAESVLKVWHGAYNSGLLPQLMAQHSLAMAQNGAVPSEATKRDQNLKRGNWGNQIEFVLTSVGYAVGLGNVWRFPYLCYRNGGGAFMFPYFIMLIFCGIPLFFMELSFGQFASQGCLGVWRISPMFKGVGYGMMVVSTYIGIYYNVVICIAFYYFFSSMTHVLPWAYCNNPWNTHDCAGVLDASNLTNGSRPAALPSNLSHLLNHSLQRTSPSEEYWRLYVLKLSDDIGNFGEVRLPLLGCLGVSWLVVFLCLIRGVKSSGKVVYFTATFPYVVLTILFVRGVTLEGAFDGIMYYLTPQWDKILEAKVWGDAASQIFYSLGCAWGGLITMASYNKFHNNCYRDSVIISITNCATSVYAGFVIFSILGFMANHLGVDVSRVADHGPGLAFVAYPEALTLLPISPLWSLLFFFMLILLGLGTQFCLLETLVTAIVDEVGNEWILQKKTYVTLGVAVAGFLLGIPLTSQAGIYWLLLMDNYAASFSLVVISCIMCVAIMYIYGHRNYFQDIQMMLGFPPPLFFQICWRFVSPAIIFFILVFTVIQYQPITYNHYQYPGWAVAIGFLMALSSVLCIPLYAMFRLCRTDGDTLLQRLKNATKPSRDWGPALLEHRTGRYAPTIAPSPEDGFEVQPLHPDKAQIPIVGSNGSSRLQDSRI
# UniProt Q64663, sequence (whole entry, unmodified, looked up): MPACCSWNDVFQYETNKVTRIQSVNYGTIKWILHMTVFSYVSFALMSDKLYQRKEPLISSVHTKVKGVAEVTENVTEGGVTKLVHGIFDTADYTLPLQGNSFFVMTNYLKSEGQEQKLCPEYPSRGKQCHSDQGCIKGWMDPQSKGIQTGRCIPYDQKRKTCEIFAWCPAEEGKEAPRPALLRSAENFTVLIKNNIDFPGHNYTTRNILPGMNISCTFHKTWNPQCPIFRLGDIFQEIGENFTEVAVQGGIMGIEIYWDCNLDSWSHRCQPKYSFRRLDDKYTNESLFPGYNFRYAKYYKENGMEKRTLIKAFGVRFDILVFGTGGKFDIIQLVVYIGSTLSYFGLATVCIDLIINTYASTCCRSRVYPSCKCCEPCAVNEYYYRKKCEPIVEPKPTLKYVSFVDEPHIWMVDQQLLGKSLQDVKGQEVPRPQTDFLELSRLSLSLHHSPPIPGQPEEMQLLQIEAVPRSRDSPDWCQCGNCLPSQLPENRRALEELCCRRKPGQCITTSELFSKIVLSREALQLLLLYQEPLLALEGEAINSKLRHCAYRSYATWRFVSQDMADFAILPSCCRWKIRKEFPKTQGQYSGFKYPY
Molecule,tested on,test,test system,conditions,how to read,measurement,result
insulin aspart,,ELISA,"human, adults with type 1 diabetes, up to 35 years, serum","subcutaneous, 0.2 U/kg",,onset of appearance,5.9 min
Pegcetacoplan,,population PK model,human,,,"clearance, typical value",0.0117 L/h
insulin glargine,,LC-MS/MS,"type 2 diabetic subjects, plasma","dose not given, 13 h, two other subjects",,last measurable concentration,37 pmol/L
glucagon,,shake-flask HPLC,10 mM PBS,"2 h, pH 7.2",,thermodynamic solubility,92.1 µM
human insulin,,ELISA,"pig, anaesthetized, serum","subcutaneous, 20 IU, -20 to +420 min",,AUC,1.35 ± 0.167 nM·h
methyl-β-cyclodextrin,"Sodium- and chloride-dependent glycine transporter 1 (SLC6A9, Homo sapiens, UniProt P48067)","transport activity, [3H]glycine uptake",,"2.5 mg/mL, 1 min, added: glycine 900 µM",higher = more transport,glycine uptake rate,78.4 a.u. and 74.7 a.u. and 79.5 a.u. and 67.1 a.u. and 81.1 a.u.
IGF-1,,IVIS imaging,"mouse, non-injured, brain","intravenous, tail vein, 1 µmol/kg, Cy5.5-conjugated",,time to peak brain accumulation,24 h
pegcetacoplan,,refers to: general and administration site disorders,patients with PNH,"dose not given, phase Ib trial",,number of TEAEs,263
neuropeptide Y 3-35,,,extracted samples in autosampler,"5 pM, 72 h, 10 °C",,postpreparative stability,65 % recovery
Ubiquitin fragment (Homo sapiens),,"NMR, refers to: Lys6",,,,pKa,10.5
Neuropeptide Y,,RP-HPLC,HALO RP-amide column,"25 µM, acetic acid/methanol, 25 min gradient",,retention time,17.2 min
GSGAGKETRV,human SCRIB PDZ3-4 tandem (MBP fusion),surface plasmon resonance,peptide,concentration not given,higher = stronger binding,normalised SPR binding response,137 normalised RU
insulin aspart,,"ELISA after PEG precipitation, refers to: free insulin aspart","human, type 1 diabetes, serum","subcutaneous, dose not given, least squares mean",,AUC(2 h-t),0.262 nM·h
colistin,Pseudomonas aeruginosa,,clinical isolate RKI 612/16,,,MIC,1 µg/mL
YEQDPWGVKWWY,,,"peptide, mouse, CP model, serum","0.154 µmol/kg, 4 weeks",,serum ALT,no effect
bcp C50S (Escherichia coli),,"UV-vis, refers to: Cys45",,"reduced, folded, numbering of the source",,pKa,6.05
ACEEQNPWARYLEWLFPTETLLLEL,,ex vivo fluorescence imaging,"peptide, BALB/c mice, 4T1 tumour-bearing","intravenous, 5 nmol, 2 h post-injection, background-corrected mean fluorescence",relative to: tumour over muscle,contrast index,3.2 ± 0.9
insulin icodec,,immunoassay,"Japanese patients with type 1 diabetes, serum","dose not given, 168 h after last dose, geometric mean total serum",,dose-normalised AUCτ at steady state,10800 (nmol·h/L)/(U/kg)
CAMK2A C280S/C289S (Homo sapiens),,"chemical modification, mass spectrometry, refers to: Cys6",,"37 °C, apparent, reduced thiol",,pKa,7.1
GSGAGKETEC,human SCRIB PDZ3-4 tandem (MBP fusion),surface plasmon resonance,peptide,concentration not given,higher = stronger binding,normalised SPR binding response,0 normalised RU
"FNA / CGLSGLGVA-NH2 ([18F]FNA-labelled, C-amide)",,ex vivo gamma counting,"peptide, glioblastoma mouse model, stomach","60 min post injection, added: 500-fold excess CooP blocking",,tissue uptake,0.36 %ID/g
ACEQNPIYWARYADWLFTTPLLLLDLALLVDADEGT,,ex vivo fluorescence imaging,"peptide, BALB/c mice, 4T1 tumour-bearing, kidney","intravenous, 5 nmol, 2 h post-injection",higher = more uptake,mean fluorescence intensity,1240 ± 182 a.u.
epoetin alfa,UT7/EPO,"RT-qPCR, refers to: SOCS1",,"concentration not given, 90 min, normalized to HPRT1",relative to: vehicle,mRNA level,5.5 fold
insulin degludec,,,human,"subcutaneous, 0.4 IU/kg, 3 FC level, single dose, reference formulation",,AUClast,609 ± 74 ng·h/mL
ACDDQNPWRAYLDLLFPTDTLLLDLLW,,ex vivo fluorescence imaging,"peptide, BALB/c mice, 4T1 tumour-bearing, 4T1 tumour","intravenous, 5 nmol, 24 h post-injection",higher = more uptake,mean fluorescence intensity,2770 ± 600 a.u.
Peginesatide,UT7/EPO,"tyrosine phosphorylation, LC-MS/MS phosphoproteomics, GluC, refers to: PLCG1 tyrosine 775",,"10 nM, 15 min, added: 10 U/mL EPO",relative to: vehicle,phosphorylation level,3.4 fold
human insulin,,population PK model,healthy human,"subcutaneous, 15 IU, euglycaemic glucose clamp",,absorption rate constant 1,0.34 h⁻¹
adrenomedullin,,RP-HPLC,HALO Peptide ES-C18 column,"25 µM, formic acid/methanol, 10 min gradient",,retention time,8.14 min
BzATP,"P2X purinoceptor 7 (P2rx7, Rattus norvegicus, UniProt Q64663, I214A/Q143A/R125A)","ion current, agonist, two-electrode voltage clamp",Xenopus oocytes,300 µM,,normalized current,0.618 and 0.674 and 0.569
insulin icodec,,,human moderate renal impairment,concentration not given,,participants with adverse events,50%
11-deoxycorticosterone,CYP11B2 (human),"substrate binding, stopped-flow global kinetic fitting",purified enzyme,"3-state conformational selection model, added: 40-fold excess adrenodoxin",,rate constant k1,0.831 ± 0.0775 s⁻¹
insulin icodec,,refers to: trough total compound,"Chinese type 2 diabetes patients, serum","subcutaneous, once weekly",,time to steady state,3 to 4 weeks

# A few entries again:
Molecule,tested on,test,test system,conditions,how to read,measurement,result
Pegcetacoplan,,population PK model,human,,,"clearance, typical value",0.0117 L/h
ACEQNPIYWARYADWLFTTPLLLLDLALLVDADEGT,,ex vivo fluorescence imaging,"peptide, BALB/c mice, 4T1 tumour-bearing, kidney","intravenous, 5 nmol, 2 h post-injection",higher = more uptake,mean fluorescence intensity,1240 ± 182 a.u.
insulin glargine,,LC-MS/MS,"type 2 diabetic subjects, plasma","dose not given, 13 h, two other subjects",,last measurable concentration,37 pmol/L
bcp C50S (Escherichia coli),,"UV-vis, refers to: Cys45",,"reduced, folded, numbering of the source",,pKa,6.05
